Experimental data gathered from unrelated publications.
Numbered parts are unrelated; each lists some results of a single study.

Set 1 — method: protein binding microarray; form: double-stranded DNA, one strand shown; matrix: in vitro; tested at: not given; reference: not given; direction: higher = stronger binding
Target: Histone acetyltransferase KAT6A, winged helix 1, GST fusion (KAT6A, Homo sapiens, UniProt Q92794, residues 1-85)
Notes: 8-mer, flanks averaged, mean of 2 arrays, mostly near background
Construct (chain): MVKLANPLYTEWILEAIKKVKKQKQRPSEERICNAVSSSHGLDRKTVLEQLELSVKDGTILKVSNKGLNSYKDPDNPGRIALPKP
Strand	E-score
AATTGCAA	-0.117
CAATACAA	-0.143
GGCATTAA	-0.0585
GGTCGCAC	0.247
GTCGAAAA	-0.0912
CTTGGTGA	-0.126
CCGCTAAC	0.254

Set 2 — method: universal PBM; form: double-stranded DNA, one strand shown; matrix: in vitro; tested at: not given; direction: higher = stronger binding
Target: Sal-like protein 4, full length isoform B (SALL4, Homo sapiens, UniProt Q9UJQ4-2, residues 1-616)
Notes: 8-mer, flanks averaged, mean of replicates
Strand	E-score
AAAGTGGA	0.0622
GATCTAGA	0.0773
CAGGATAG	0.00029
ATATTCGC	0.299
ACTTCAGA	-0.014
CTATATTC	0.257

Set 3 — method: aptamer microarray, sandwich; form: DNA with 2'F-ANA; matrix: in vitro; tested at: 200 nM; added: Cy3 exosite-II aptamer, 400 nM; direction: higher = stronger binding; strand: GGTTGGTGTGGTTGG
Target: Prothrombin, mature alpha-thrombin (F2, Homo sapiens, UniProt P00734)
Notes: whole 15-mer aptamer, many near background
Modification	mean fluorescence intensity [a.u.]
2'F-ANA at 1 3 4 6 10 11 12 13 14	53.6
2'F-ANA at 2 5 6 7 9 15	76.4
2'F-ANA at 4 5 7 8 12 13 15	98.9
2'F-ANA at 4 5 9 10 11 12 15	49.5
2'F-ANA at 1 2 5 11 14 15	51.8
2'F-ANA at 2 5 6 10 11 12 13 14 15	60.9
2'F-ANA at 2 5 6 7 9 10 12 13	50

Single results of other studies
Molecule	target	test	test system	conditions	how to read	measurement	result
PhoQ, residues 284 288 289 292 302 303 GNNTDL	PhoP, residues 12 14 15 18 19 IFFTR (Escherichia coli, UniProt P23836)	Sort-seq, item: YFP reporter	E. coli	PhoQ-PhoP variant library, added: 10 µM Mg2+	reference: high Mg2+ state, higher = stronger signaling	fold induction	2.92
